Results gathered from unrelated publications.
Every numbered part comes from another study and shows a few of its results, in no order.

Set 1
Target: Histone acetyltransferase KAT6A, both winged helices, GST fusion (KAT6A, Homo sapiens, UniProt Q92794, residues 1-181)
Method: protein binding microarray
Form: double-stranded DNA, one strand shown
Sample: in vitro
Concentration: not given
Notes: 8-mer, flanks averaged, mean of 2 arrays, mostly near background
Baseline: not given
Direction: higher = stronger binding
Construct (chain): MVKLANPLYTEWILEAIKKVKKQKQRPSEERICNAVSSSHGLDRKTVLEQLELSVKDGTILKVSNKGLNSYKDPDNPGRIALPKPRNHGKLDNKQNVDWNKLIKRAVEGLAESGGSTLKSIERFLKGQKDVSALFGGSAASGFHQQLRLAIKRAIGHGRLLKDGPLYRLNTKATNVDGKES
For `CTTCTGAC`, the E-score was -0.189.
`AAGGCGAT` gave an E-score of -0.074.
With `GAGTCTGC` the E-score was -0.122.
With `CGCAGGAA` the E-score was 0.0481.
`ACAGCATG` gave an E-score of -0.027.
`TATATCCA` gave an E-score of -0.0256.
The E-score of `AATGCCCC` is reported as -0.183.
`GCTGTCGA` has an E-score of -0.0209.
With `AGGAAAGC` the E-score was 0.0319.
`ACCGGGCT` gave an E-score of 0.0934.
The E-score of `CATCCGCC` is reported as 0.175.
With `CTTCCTCA` the E-score was -0.127.
The E-score of `AAGATCTC` is reported as -0.0305.
`CGTCTGGC` has an E-score of 0.0575.
With `ACGTATGA` the E-score was 0.0436.
The E-score of `GCTTAAAA` is reported as -0.00999.

Set 2
Target: human cyclin A2
Effect on: peptide binding
Method: competitive growth sequencing
Form: peptide
Organism: Saccharomyces cerevisiae
Strain: cyclin A2-Cln2 fusion strain
Concentration: concentration not given
Baseline: unfused Cln2 strain
Direction: direction not given
`EDLLKELQKQLEE` has a binding score of -0.579.
`KLLPRKLQFFCDP` gave a binding score of 4.61.
The binding score of `REPARRLFLFGEE` is reported as 1.09.

Set 3
Target: RNA binding protein fox-1 homolog 2, RRM domain, GST-SBP tag (RBFOX2, Homo sapiens, UniProt O43251-10, residues 100-194)
Method: RNA Bind-n-Seq
Form: RNA
Sample: in vitro
Concentration: 365 nM
Notes: natural RNA segment, single round, ends assumed
Baseline: no-protein control
Direction: higher = stronger binding
Target sequence (chain): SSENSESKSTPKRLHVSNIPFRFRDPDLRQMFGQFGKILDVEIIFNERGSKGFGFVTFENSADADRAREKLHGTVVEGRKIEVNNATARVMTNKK
`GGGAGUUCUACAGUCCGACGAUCAGUGCUUCCAAAUUCUUUUGGUGCAAUUGAGGAGAUAUGCCAGAUGCUUAAACACAUUUAAUUGCUGUCAGAUUAAUUCCAUGAUCACUAAAGAGUUGCUGCUUUUUUCAUGGAAUUCUCGGGUGCCAA`: “RBNS enrichment (R)” 0.289.
`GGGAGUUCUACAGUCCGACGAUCACUGCACCAGUGCCUGCUCAUUGAGGAGAGUAACUGCUGGCCAGGCAGAAAGAAUAUGGGCUCUGCAAUGAGACAGACCUGGAGGGGACUCUCCCGUUGAGCACUAGCAGUGGAAUUCUCGGGUGCCAA` — result for “RBNS enrichment (R)”: 0.586.
For `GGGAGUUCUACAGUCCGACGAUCUAAUUGGUUUGUAUAUGUUUGUGAGAUCUAGCUUCUGAGGAAUCUCAUACAUAGUAGGAACCAUCAUAGAGUAAAGCUUGUAGCAGAAAAAUUGGAAGGGUUUUGAGAUAUGGAAUUCUCGGGUGCCAA`, “RBNS enrichment (R)” read 1.87.
`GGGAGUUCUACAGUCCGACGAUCAGACACUUCCUGAGAGUCUCACCUUCAAAAUGACACCGCUGCCCAUCCAUUGCUCAAUGGUACAGAGUGUGGGGUCAGUCCACCACCCUUGACCUCCCGGCAGGGCAAGGUGGAAUUCUCGGGUGCCAA` — result for “RBNS enrichment (R)”: 0.283.
For `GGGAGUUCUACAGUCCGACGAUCGACUUAUUGUCCCCACUAAAACAAAACAAAAAACUUUUAAUGCCUUCCACAUUAAUUAGAUUUUCUUGCAGUUUUUUUAUGGCAUUUUUUUAAAGAUGCCCUAAGUGUUGUGGAAUUCUCGGGUGCCAA`, “RBNS enrichment (R)” read 0.432.
Under “RBNS enrichment (R)”, `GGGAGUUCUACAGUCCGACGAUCUAAUUUUUAAAUAUACUUGAAAUAAAAUGAUUAAAAUGAAUUUUGGUCCAGUCACAUUACUUUGCACUUCUUCUUCUUUUUUUUCUUUUUGUACAAAAUUUUAAAGACUUUGGAAUUCUCGGGUGCCAA` is recorded as 0.58.
For `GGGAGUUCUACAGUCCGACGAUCCUGGACAGCCAACUAGAACUCUGCAUCCUGUCACAGGAAGCACCUCAUAAGAAGGGAUGGGGAGGGAAGGAAGUCGCCUUGUUUACAGACCUAUUUUUGUUGUCUUGUUCUGGAAUUCUCGGGUGCCAA`, “RBNS enrichment (R)” read 0.621.
`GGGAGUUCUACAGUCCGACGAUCCAUGCCUUUAUGGGAGCAGCCACUCUCUGACUAAGUGGCCACUGCUCUCACUUAGACUUUGCUGUCCUCUAUGCUAACUAUGUAGAAGCUGGCUUUAGAUUAAAUGACUAUGGAAUUCUCGGGUGCCAA` — result for “RBNS enrichment (R)”: 0.262.
For `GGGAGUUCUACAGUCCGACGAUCCUUCCUGCACUUAACAAUAUGAAAUAGAAACUUUUGUCUUUACUGAGAUGAGGAUAUGUUUGAGAUGCACAGUUGGAUAAUGUGGGAAAAUGACAUCUAAGCUUUACCUGUGGAAUUCUCGGGUGCCAA`, “RBNS enrichment (R)” read 0.346.
Under “RBNS enrichment (R)”, `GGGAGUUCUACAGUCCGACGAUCUUCAAAGGGGCAACAGUGAUACCAUCCCUGCACUCCUGGGUCCUGCUCUUCCAAUGCCCAAGGCAUGGCAUGGUGGCAGCUGUGCCCCCGCCCAUUGCUUUGGAGCACAGUGGAAUUCUCGGGUGCCAA` is recorded as 0.238.
For `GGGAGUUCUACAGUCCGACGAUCUCAGAUUAAGCUGUUACUGAGUGAGACACGAGAAGAAUGGUGUUCGCUGGUCUGUCGGCUGUGUUCCUCUUAGUCAUCCUUGUGUUAAUGACAGGCAGUGGCUGGGAUCUUGGAAUUCUCGGGUGCCAA`, “RBNS enrichment (R)” read 0.462.
Under “RBNS enrichment (R)”, `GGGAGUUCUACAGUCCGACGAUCUUAAGUUAUUUUAAUGUGGUUUAGGGGCAAAAUGUGCAGAUACUUCAUUUUUGUAAGAUAGAUUGUAAUAGAUGCUGUUUAUACUAAACAUGUCAUAACUAUCUAUACAGUGGAAUUCUCGGGUGCCAA` is recorded as 0.623.

Set 4
Target: Interferon regulatory factor 7, full length, phosphomimetic (IRF7, Homo sapiens, UniProt Q92985, residues 1-503, S471D/S472D/S475D/S476D/S477D/S483D/S484D/S487D)
Method: protein-binding microarray
Form: double-stranded DNA, one strand shown
Sample: in vitro
Concentration: 2200 nM top
Notes: 60-bp whole probe
With: salmon DNA 0.4 mg/ml
Baseline: random background probes
Direction: higher = stronger binding
All sequences stand within: GCCTAGCAC … GTCTTGATTCGCTTGACGCTGCTG
Target sequence (chain): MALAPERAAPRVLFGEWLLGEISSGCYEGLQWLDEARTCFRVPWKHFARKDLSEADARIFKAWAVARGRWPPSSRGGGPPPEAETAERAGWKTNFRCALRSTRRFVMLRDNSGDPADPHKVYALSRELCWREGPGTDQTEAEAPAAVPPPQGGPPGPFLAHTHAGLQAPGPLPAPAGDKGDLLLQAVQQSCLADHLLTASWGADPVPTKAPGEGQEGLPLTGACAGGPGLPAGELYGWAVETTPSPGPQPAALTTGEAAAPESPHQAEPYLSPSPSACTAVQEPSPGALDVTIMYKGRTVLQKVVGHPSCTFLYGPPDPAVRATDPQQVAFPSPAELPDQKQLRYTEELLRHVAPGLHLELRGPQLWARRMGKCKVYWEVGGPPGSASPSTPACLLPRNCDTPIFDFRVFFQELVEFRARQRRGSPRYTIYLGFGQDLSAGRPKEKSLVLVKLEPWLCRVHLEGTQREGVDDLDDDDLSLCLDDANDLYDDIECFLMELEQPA
`GACGGTATCGGTTTAGGGACGTGCTAG` — result for “fitted relative affinity”: 1.5 z-score.
For `GTCGGTTTCGGGTATCGGGACGTGCTA`, “fitted relative affinity” read 7.32 z-score.
`TTAGGACTCGACTTTCGGTTAGTGCTA` — result for “fitted relative affinity”: 5.99 z-score.
`GACGATTCCAATTTCGAGACGTGCTAG` — result for “fitted relative affinity”: 1.79 z-score.
Under “fitted relative affinity”, `GACGGCATCGACACTGGGGACGTGCTA` is recorded as -0.747 z-score.
`TTAGGAATGGGGACTGGGTTAGTGCTA` — result for “fitted relative affinity”: -0.567 z-score.
`GCCGATTTCGGGACTGGAGACGTGCTA` — result for “fitted relative affinity”: 1.94 z-score.
For `GATGGTATTTGCCTGTGGTCGTGCTAG`, “fitted relative affinity” read 0.47 z-score.
For `TTAGATTTCAGTCTCCATTAGTGCTAG`, “fitted relative affinity” read 1.07 z-score.
`AACATACTGATTTCCACTTTGTGCTAG` — result for “fitted relative affinity”: 2.19 z-score.
For `GACGATATCAGTCTCAAGACGTGCTAG`, “fitted relative affinity” read 0.173 z-score.
For `TTTCACACTGTCCAGCAGGTGTGCTAG`, “fitted relative affinity” read 5.22 z-score.
Under “fitted relative affinity”, `TCATTTTTTTTAATTGAACTGTGCTAG` is recorded as 0.519 z-score.
`TTAGGTATCTGGTATCGGTTAGTGCTA` — result for “fitted relative affinity”: 0.547 z-score.
For `GACGGACGGGACACTGGGGACGTGCTA`, “fitted relative affinity” read -1.07 z-score.
Under “fitted relative affinity”, `TTAGGGTTCCTTTTCCTTTAGTGCTAG` is recorded as 1.78 z-score.
Under “fitted relative affinity”, `TTAGGTATCCTTTTCCTCTAGTGCTAG` is recorded as 1.44 z-score.
Under “fitted relative affinity”, `TTAGGACTGGACACGGGGTTAGTGCTA` is recorded as -0.776 z-score.
Under “fitted relative affinity”, `GACGGTTCCCTTTTCCTTACGTGCTAG` is recorded as 2.9 z-score.

Repeated from above (set 1):
`AAGGCGAT` gave an E-score of -0.074.
With `AGGAAAGC` the E-score was 0.0319.
With `CGCAGGAA` the E-score was 0.0481.
The E-score of `AATGCCCC` is reported as -0.183.
With `CTTCCTCA` the E-score was -0.127.
